Experimental data from different studies.
Each numbered part is a random draw from the data of one study; scales do not carry over between parts.
UniProt Q9NQU5, sequence (whole entry, looked up): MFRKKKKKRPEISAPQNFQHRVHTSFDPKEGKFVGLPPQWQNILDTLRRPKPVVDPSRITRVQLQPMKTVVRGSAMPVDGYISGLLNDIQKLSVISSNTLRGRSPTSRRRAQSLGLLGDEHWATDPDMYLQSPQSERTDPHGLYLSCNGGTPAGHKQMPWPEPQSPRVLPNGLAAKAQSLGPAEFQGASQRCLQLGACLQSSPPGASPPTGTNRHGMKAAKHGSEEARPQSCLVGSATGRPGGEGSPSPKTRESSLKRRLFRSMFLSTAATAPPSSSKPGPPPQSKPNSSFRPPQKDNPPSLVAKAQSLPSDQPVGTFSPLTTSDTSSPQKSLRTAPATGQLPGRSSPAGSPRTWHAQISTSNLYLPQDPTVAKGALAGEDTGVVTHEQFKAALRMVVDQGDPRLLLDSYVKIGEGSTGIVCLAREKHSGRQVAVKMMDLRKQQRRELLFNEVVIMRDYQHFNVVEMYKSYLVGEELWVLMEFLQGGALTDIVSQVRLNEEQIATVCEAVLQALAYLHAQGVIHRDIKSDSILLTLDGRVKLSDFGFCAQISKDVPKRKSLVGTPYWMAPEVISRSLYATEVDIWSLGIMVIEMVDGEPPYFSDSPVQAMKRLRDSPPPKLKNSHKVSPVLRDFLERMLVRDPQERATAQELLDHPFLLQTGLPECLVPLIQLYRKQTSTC
UniProt Q15208, sequence (whole entry, looked up): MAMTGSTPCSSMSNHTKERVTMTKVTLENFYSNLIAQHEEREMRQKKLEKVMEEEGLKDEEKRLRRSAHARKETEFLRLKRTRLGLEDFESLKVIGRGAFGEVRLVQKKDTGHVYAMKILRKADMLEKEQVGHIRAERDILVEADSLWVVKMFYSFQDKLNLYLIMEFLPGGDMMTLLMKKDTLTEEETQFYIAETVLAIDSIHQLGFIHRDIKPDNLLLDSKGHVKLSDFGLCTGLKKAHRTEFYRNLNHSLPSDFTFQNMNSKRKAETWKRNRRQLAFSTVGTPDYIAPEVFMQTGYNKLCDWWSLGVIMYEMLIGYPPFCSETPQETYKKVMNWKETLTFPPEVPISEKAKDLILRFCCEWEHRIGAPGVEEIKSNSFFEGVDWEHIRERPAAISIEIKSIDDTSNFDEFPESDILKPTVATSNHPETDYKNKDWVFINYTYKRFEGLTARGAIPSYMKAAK
UniProt O60674, sequence (whole entry, looked up): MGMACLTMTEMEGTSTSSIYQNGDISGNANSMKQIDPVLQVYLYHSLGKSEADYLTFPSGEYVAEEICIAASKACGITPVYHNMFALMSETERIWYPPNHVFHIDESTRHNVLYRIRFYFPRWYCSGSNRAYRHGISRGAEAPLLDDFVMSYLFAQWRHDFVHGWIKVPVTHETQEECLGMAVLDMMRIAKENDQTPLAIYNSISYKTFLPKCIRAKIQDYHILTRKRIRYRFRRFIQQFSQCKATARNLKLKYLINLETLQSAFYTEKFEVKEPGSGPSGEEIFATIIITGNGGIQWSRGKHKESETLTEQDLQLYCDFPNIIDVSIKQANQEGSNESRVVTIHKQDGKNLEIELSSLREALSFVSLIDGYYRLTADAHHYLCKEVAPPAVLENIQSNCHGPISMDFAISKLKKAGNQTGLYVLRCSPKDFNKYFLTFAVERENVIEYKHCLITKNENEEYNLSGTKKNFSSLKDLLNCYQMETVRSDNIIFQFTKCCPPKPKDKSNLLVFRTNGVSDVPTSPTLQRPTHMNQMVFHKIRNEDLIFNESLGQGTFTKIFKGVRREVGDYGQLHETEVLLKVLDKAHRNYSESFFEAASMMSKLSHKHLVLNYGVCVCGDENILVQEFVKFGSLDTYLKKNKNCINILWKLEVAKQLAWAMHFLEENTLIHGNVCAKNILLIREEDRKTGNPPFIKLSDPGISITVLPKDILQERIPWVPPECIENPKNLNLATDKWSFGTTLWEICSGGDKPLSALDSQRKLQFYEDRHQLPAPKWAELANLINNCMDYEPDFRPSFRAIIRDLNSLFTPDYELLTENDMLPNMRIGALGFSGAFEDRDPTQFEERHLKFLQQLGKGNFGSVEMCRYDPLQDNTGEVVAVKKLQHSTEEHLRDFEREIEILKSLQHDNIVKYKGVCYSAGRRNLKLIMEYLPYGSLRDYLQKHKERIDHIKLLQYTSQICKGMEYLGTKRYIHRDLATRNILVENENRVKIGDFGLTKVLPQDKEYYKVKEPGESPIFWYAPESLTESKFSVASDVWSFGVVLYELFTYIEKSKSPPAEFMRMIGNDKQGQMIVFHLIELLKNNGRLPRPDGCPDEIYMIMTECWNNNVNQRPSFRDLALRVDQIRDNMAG
UniProt P32298, sequence (whole entry, looked up): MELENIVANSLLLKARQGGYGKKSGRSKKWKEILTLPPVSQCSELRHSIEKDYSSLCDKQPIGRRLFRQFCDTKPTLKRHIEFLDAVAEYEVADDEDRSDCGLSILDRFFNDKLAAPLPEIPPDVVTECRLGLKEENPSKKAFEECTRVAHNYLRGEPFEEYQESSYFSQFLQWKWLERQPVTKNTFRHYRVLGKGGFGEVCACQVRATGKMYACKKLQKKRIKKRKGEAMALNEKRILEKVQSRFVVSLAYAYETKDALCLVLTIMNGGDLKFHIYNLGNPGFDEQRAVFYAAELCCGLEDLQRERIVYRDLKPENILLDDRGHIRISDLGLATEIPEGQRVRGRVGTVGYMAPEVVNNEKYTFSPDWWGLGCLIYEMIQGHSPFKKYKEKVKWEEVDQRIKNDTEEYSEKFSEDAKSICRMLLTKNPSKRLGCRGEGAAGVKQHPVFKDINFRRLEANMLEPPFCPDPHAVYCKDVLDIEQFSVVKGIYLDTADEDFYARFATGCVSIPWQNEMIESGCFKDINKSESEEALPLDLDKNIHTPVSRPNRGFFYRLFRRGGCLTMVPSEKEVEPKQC
UniProt P57058, sequence (whole entry, looked up): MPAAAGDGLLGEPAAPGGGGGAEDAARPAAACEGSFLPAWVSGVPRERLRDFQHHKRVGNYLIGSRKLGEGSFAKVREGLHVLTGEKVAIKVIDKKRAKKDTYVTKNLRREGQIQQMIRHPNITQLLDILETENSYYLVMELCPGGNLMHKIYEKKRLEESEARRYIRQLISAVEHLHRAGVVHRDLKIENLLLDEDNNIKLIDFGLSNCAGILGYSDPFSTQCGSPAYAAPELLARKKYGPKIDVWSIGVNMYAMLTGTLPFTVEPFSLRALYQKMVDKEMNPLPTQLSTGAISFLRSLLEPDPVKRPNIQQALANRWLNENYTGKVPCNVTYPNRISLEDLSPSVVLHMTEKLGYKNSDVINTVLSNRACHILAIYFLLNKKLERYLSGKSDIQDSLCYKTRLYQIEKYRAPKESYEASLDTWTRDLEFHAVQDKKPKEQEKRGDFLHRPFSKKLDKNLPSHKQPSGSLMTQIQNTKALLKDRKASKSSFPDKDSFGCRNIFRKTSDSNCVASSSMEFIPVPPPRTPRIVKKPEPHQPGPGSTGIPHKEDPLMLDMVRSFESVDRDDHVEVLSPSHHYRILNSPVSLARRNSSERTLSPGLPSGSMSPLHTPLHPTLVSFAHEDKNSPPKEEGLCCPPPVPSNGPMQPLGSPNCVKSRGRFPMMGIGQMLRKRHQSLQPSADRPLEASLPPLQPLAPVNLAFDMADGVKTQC
UniProt Q9BRS2, sequence (whole entry, looked up): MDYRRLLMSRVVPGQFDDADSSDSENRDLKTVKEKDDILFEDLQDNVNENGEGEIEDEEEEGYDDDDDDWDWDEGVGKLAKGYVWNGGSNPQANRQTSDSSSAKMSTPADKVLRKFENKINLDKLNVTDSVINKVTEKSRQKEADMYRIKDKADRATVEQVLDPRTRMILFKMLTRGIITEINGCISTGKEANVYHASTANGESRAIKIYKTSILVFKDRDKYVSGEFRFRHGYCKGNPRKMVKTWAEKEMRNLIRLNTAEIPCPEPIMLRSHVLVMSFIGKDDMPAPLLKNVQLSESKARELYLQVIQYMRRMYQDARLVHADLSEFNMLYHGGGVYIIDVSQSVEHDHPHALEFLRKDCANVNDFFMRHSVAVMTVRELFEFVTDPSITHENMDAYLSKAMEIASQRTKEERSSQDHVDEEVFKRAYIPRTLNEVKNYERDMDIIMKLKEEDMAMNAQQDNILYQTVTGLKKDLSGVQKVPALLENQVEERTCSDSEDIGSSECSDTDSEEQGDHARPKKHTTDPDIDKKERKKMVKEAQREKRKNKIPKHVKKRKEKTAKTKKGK
UniProt P0C264, sequence (whole entry, looked up): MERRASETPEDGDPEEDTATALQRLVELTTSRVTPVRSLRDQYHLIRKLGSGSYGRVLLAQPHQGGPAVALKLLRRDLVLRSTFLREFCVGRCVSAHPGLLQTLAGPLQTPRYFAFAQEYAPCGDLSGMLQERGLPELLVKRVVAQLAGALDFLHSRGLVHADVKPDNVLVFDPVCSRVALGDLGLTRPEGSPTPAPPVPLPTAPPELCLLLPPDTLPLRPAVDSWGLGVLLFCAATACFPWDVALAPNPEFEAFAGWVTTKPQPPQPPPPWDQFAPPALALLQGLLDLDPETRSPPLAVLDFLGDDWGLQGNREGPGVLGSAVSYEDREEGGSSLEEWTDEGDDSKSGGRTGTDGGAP

Set 1 — observed: cell-free assay; technique: competition with immobilised ligand; concentration: 1 µM
SMILES: O=C(N1CCS(=O)(=O)CC1)N1C[C@H](c2ccc(OC(F)(F)F)cc2)C[C@H](c2nc(C3CC3)no2)C1
It gave 100% for remaining binding (RIOK1 (Homo sapiens, UniProt Q9BRS2)).
The remaining binding was 100% (PAK6 (Homo sapiens, UniProt Q9NQU5)).
The remaining binding was 100% (PIK3CA (Homo sapiens, UniProt P42336, M1043I)).
The remaining binding was 100% (STK38 (Homo sapiens, UniProt Q15208)).
For LCK (Homo sapiens, UniProt P06239): remaining binding read 100%.
EIF2AK1 (Homo sapiens, UniProt Q9BQI3) — remaining binding: 90%.
For GRK4 (Homo sapiens, UniProt P32298): remaining binding read 100%.
The remaining binding was 100% (Tyrosine-protein kinase ABL1, non-phosphorylated (ABL1, Homo sapiens, UniProt P00519, Q252H)).
MAP3K9 (Homo sapiens, UniProt P80192) — remaining binding: 100%.
HUNK (Homo sapiens, UniProt P57058) — remaining binding: 100%.
For MAP4K4 (Homo sapiens, UniProt O95819): remaining binding read 100%.
The remaining binding was 75% (Tyrosine-protein kinase JAK2, JH1 (JAK2, Homo sapiens, UniProt O60674)).
The remaining binding was 98% (SBK3 (Homo sapiens, UniProt P0C264)).
The remaining binding was 100% (Ribosomal protein S6 kinase alpha-3, N-terminal kinase domain (RPS6KA3, Homo sapiens, UniProt P51812)).

Set 2 — species: human; sample: microsomes or S9; concentration: 2 µM; time: 0.5 h
The remaining compound of `CC(CNc1nc(-c2ccccc2)nc2nc(-c3ccccc3)oc12)N1CCN(C)CC1` (stereo not shown) is reported as 77.2%.
For `CCCn1c(=O)oc2cc(NC(=O)Nc3ccccc3OCC)ccc21`, the remaining compound was 70.3%.
The remaining compound of `NS(=O)(=O)c1ccc(CCNCc2cccc(Oc3nnnn3-c3ccccc3)c2)cc1` is reported as > 100%.
`COc1ccccc1Cn1c(C(=O)NCC2CC2)cc2sccc21` gave a remaining compound of 2.28%.
For `CC(C)C(=O)Nc1ccc(N2CCCCC2C)cc1` (stereo not shown), the remaining compound was 48%.
With `CCOC(=O)c1[nH]c(C)c(CN(Cc2ccccc2)C(=O)CCC(=O)O)c1C` the remaining compound was 2.7%.
`O=C(NC1CCCCC1)c1nnn(-c2ccccc2Cl)c1-c1cccnc1` has a remaining compound of 99.3%.
For `O=C1CCC(C(=O)N2CCOC(c3ccsc3)C2)n2cccc21` (stereo not shown), the remaining compound was 91.3%.
For `CC1CCN2c3cc(Cl)ccc3CC3(C(=O)OC(C)(C)OC3=O)C2C1` (stereo not shown), the remaining compound was > 100%.
For `O=C(NCCCN1CCN(c2ccccc2F)CC1)c1ccc2c(c1)N(Cc1ccccc1)C(=O)c1ccccc1[S+]2[O-]` (stereo not shown), the remaining compound was 0.518%.
`CN(CC(C)(CO)CO)c1ccnc(C(C)(C)C)n1` has a remaining compound of 87.9%.
The remaining compound of `CC(C)(C)/C(=C/c1ccc(Cl)cc1)Cn1ccnc1` is reported as 99.2%.

Set 3 — observed: enzyme activity; mode: inhibitor; concentration: 0.5 µM; relative to: control
Target: Serine/threonine-protein kinase PAK 2 (PAK2, Homo sapiens, UniProt Q13177)
UniProt Q13177, sequence (whole entry, looked up): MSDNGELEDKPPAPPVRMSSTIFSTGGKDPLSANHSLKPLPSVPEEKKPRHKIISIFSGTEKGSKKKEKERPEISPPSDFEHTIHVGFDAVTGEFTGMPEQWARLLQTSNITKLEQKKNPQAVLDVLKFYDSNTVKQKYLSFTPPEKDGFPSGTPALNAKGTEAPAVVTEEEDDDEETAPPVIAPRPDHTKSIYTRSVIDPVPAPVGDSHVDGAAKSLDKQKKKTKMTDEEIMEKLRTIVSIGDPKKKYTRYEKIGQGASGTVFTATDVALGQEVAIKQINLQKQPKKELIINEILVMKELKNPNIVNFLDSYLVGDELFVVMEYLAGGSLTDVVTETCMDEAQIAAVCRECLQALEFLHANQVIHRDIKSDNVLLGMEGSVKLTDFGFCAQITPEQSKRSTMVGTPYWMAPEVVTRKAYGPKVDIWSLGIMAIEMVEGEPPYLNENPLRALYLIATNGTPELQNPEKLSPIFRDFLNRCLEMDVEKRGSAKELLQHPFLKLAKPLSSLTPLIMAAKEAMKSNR
`Cc1nc2cc3nc(-c4cccs4)cnc3cc2n1C` gave a remaining activity of 102%.
For `N#Cc1c(NC(=O)c2cccc3ccccc23)sc2c1CCCC2`, the remaining activity was 103%.
The remaining activity of `c1ccc(-c2cnc(Nc3ccc(OCCN4CCCC4)cc3)s2)cc1` is reported as 94.8%.
The remaining activity of `O=C1C(Cl)=C(N2C(=O)CCC2=O)C(=O)c2ccccc21` is reported as 104%.
For `Cc1cn(-c2cc(NC(=O)c3ccc(C)c(Nc4nccc(-c5cccnc5)n4)c3)cc(C(F)(F)F)c2)cn1`, the remaining activity was 94.2%.
With `O=c1cc(-c2cccc3c2Sc2ccccc2S3)oc(N2CCOCC2)c1` the remaining activity was 100%.
For `O=C(NC(NC(=S)Nc1ccc(F)c([N+](=O)[O-])c1)C(Cl)(Cl)Cl)C(c1ccccc1)c1ccccc1` (stereo not shown), the remaining activity was 100%.
With `N#C/C(=C\c1ccc(O)c(O)c1)C(=O)NCc1ccccc1` the remaining activity was 76.8%.
With `O=C(Nc1cccc(Nc2nccc(Nc3cccc(C(F)(F)F)c3)n2)c1)C1CC1` the remaining activity was 105%.
The remaining activity of `COc1cc2c(cc1OC)-c1[nH]nc(Nc3cccc(F)c3)c1C2` is reported as 99.6%.
For `COc1cc2ncnc(Nc3ccc(O)c(Br)c3)c2cc1OC`, the remaining activity was 90.6%.
`O=C1c2ccccc2-c2n[nH]c3cccc1c23` gave a remaining activity of 91.1%.

Mixed results — species: female C57BL/6 mouse; sample: plasma; route: oral; dose: 10 mg/kg
With `CNC(=O)c1ccc(-c2cnn3ccc(C(=O)N(C[C@H]4CCC(=O)O4)c4ccc(OC(F)(F)F)cc4)cc23)cc1` the AUC was 0.075 µM·h.
The AUC of `COC(=O)c1cc(Cl)ccc1N(C)C(=O)c1ccn2ncc(-c3ccc(C(N)=O)cc3)c2c1` is reported as 0.142 µM·h.

For quick reference, copied from above (set 3):
The remaining activity of `c1ccc(-c2cnc(Nc3ccc(OCCN4CCCC4)cc3)s2)cc1` is reported as 94.8%.
The remaining activity of `O=C1C(Cl)=C(N2C(=O)CCC2=O)C(=O)c2ccccc21` is reported as 104%.
For `Cc1cn(-c2cc(NC(=O)c3ccc(C)c(Nc4nccc(-c5cccnc5)n4)c3)cc(C(F)(F)F)c2)cn1`, the remaining activity was 94.2%.
